Measurements from different studies.
Lines come from different studies, so protocols differ. Numbers after ± are the reported error.

| SMILES | test | test system | setting | tissue uptake [%ID/g] |
| --- | --- | --- | --- | --- |
| CCCC[C@H](NC(=O)CN1CCC(NC(=O)CN2CCN(CC(=O)O)CCN(CC(=O)O)CCN(CC(=O)O)CC2)CC1)C(=O)N[C@H]1CC(=O)NCCCC[C@@H](C(N)=O)NC(=O)[C@H](Cc2c[nH]c3ccccc23)NC(=O)[C@H](CCCNC(=N)N)NC(=O)[C@@H](Cc2ccccc2)NC(=O)[C@H](Cc2c[nH]cn2)NC1=O [gallium-68 labelled] |  | male C57BL/6J mice, B16-F10 tumours, lungs | intravenous, 1 h, blocking study, with: 100 µg non-radioactive Ga-peptide | 2.8 ± 1.6 |
| NC12CNCCNCC(NCc3ccc(CNC(=O)CCCC(=O)NCc4ccc(-c5nncnn5)cc4)cc3)(CNCCNC1)CNCCNC2.[64Cu+2] |  | athymic nude mice SW1222 xenograft, bone | 1 h post injection, 24 h accumulation interval, with: huA33-TCO pretargeting | 0.67 ± 0.14 |
| CCCC[C@H](NC(=O)CNC(=O)CNC(=O)CN1CCN(CC(=O)O)CCN(CC(=O)O)CCN(CC(=O)O)CC1)C(=O)N[C@H]1CC(=O)NCCCC[C@@H](C(N)=O)NC(=O)[C@H](Cc2c[nH]c3ccccc23)NC(=O)[C@H](CCCNC(=N)N)NC(=O)[C@@H](Cc2ccccc2)NC(=O)[C@H](Cc2c[nH]cn2)NC1=O [gallium-67 labelled] |  | female C57 mice, B16/F1 melanoma, tumor | intravenous, 0.037 MBq, 24 h | 7.54 ± 1.19 |
| O=C([O-])CN1CCN(CC(=O)[O-])CCN(CC(=O)NC[C@H]2CC[C@H](C(=O)N[C@H](Cc3cnc4ccccc4c3)C(=O)NCCCC[C@H](NC(=O)N[C@@H](CCC(=O)O)C(=O)O)C(=O)O)CC2)CCN(CC(=O)[O-])CC1.[64Cu+2] | ex vivo gamma counting | 22Rv1 tumour-bearing mice, kidney | intravenous, 0.74 MBq, 1 h | 147 ± 33 |
| CC(C)[C@H](NC(=O)[C@@H]1CCCN1C(=O)[C@H](CCCNC(=N)N)NC(=O)[C@H](CS)NC(=O)[C@H](Cc1c[nH]c2ccccc12)NC(=O)[C@H](CCCNC(=N)N)NC(=O)[C@@H](Cc1ccccc1)NC(=O)[C@H](Cc1c[nH]cn1)NC(=O)[C@H](CCC(=O)O)NC(=O)[C@H](CS)NC(=O)[C@H](CS)NC(=O)[C@@H]1CC(=O)N[C@@H](CCCNC(=N)N)C(=O)NCC(=O)N[C@@H](CC(=O)O)C(=O)N[C@H](Cc2ccc(O)cc2)C(=O)N1)C(N)=O [technetium-99m labelled] |  | C57 mice B16/F1 melanoma female, blood | iv, 2 h, with: NDP-MSH 10 µg co-injected | 0.44 ± 0.37 |
| CCCC[C@H](NC(=O)CNC(=O)CNC(=O)CN1CCN(CC(=O)O)CCN(CC(=O)O)CC1)C(=O)N[C@H]1CC(=O)NCCCC[C@@H](C(N)=O)NC(=O)[C@H](Cc2c[nH]c3ccccc23)NC(=O)[C@H](CCCNC(=N)N)NC(=O)[C@@H](Cc2ccccc2)NC(=O)[C@H](Cc2c[nH]cn2)NC1=O [gallium-67 labelled] |  | female C57 mice, B16/F1 melanoma, kidneys | intravenous, 0.037 MBq, 2 h | 8.34 ± 3.25 |
| O=C([O-])c1cccc(CN(CCN(Cc2cn(Cc3ccccc3)nn2)Cc2cccc(C(=O)[O-])n2)Cc2cn(Cc3ccccc3)nn2)n1.[64Cu+2] |  | healthy athymic nude mice, lung | intravenous, 24 h | 4.3 |
| CCCC[C@@H]1NC(=O)[C@@H](NC(=O)[C@H](CCC(=O)O)NC(=O)CNC(=O)CN2CCN(CC(=O)O)CCN(CC(=O)O)CCN(CC(=O)O)CC2)CCCCNC(=O)C[C@@H](C(N)=O)NC(=O)[C@H](C(C)C)NC(=O)[C@@H]2CCCN2C(=O)[C@H](CCCNC(=N)N)NC(=O)CNC(=O)[C@H](Cc2c[nH]c3ccccc23)NC(=O)[C@H](CCCNC(=N)N)NC(=O)[C@@H](Cc2ccccc2)NC(=O)[C@H](Cc2c[nH]cn2)NC(=O)[C@H](CCC(=O)O)NC1=O [gallium-67 labelled] |  | normal C57 mice, kidneys | intravenous, 0.037 MBq/mouse, 2 h | 37.2 ± 2.16 |
| CN1C(=O)[C@@H](Cc2ccc(O)c(I)c2)NC(=O)CNC(=O)[C@H](Cc2ccc3ccccc3c2)NC(=O)[C@H](CCCNC(=N)N)NC(=O)[C@H]1CCCNC(=O)c1ccc(CNC(=O)CN2CCN(CC(=O)O)CCN(CC(=O)O)CCN(CC(=O)O)CC2)cc1 [lutetium-177 labelled] | item: 177Lu radioactivity | female CB-17 SCID mice, Daudi xenograft, muscle | intravenous, 0.16 nmol per mouse, 96 h | 0.04 ± 0.01 |
| N=C(N)NCCC[C@H](NC(=O)CON=C[C@H](F)[C@@H](O)[C@H](O)[C@H](O)CO)C(=O)NCC(=O)N[C@@H](CC(=O)O)C(=O)O [fluorine-18 labelled] |  | nude mice U-87 MG tumour, liver | intravenous, 2 h | 0.22 ± 0.04 |

Repeated from above:
| SMILES | test | test system | setting | tissue uptake [%ID/g] |
| --- | --- | --- | --- | --- |
| O=C([O-])c1cccc(CN(CCN(Cc2cn(Cc3ccccc3)nn2)Cc2cccc(C(=O)[O-])n2)Cc2cn(Cc3ccccc3)nn2)n1.[64Cu+2] |  | healthy athymic nude mice, lung | intravenous, 24 h | 4.3 |
